Measurements from different studies.
Every numbered part comes from another study and shows a few of its results, in no order. Values joined by “and” are separate records of one study, mostly repeats; a detail may differ.
Chain of UniProt O75716 (whole entry, looked up): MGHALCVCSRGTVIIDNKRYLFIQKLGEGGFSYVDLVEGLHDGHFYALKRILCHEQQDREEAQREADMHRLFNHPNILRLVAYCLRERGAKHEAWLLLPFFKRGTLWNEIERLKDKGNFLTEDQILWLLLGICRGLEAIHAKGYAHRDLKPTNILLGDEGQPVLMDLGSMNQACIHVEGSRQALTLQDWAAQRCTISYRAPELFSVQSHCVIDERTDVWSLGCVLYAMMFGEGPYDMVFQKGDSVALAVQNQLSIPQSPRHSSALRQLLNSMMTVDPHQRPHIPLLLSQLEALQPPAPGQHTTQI
Chain of UniProt Q9Y6E0 (whole entry, looked up): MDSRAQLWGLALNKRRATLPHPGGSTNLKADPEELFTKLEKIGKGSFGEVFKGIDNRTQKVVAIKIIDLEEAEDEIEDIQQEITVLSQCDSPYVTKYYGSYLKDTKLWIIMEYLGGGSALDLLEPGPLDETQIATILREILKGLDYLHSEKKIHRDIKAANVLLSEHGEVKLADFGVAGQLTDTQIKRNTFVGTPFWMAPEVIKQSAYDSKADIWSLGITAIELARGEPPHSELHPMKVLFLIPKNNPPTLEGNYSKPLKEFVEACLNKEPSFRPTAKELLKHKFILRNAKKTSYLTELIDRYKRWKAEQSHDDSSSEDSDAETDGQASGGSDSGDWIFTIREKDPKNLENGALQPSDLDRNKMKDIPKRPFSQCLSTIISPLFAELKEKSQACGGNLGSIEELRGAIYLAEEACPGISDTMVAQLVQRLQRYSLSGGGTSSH
Chain of UniProt Q05655 (whole entry, looked up): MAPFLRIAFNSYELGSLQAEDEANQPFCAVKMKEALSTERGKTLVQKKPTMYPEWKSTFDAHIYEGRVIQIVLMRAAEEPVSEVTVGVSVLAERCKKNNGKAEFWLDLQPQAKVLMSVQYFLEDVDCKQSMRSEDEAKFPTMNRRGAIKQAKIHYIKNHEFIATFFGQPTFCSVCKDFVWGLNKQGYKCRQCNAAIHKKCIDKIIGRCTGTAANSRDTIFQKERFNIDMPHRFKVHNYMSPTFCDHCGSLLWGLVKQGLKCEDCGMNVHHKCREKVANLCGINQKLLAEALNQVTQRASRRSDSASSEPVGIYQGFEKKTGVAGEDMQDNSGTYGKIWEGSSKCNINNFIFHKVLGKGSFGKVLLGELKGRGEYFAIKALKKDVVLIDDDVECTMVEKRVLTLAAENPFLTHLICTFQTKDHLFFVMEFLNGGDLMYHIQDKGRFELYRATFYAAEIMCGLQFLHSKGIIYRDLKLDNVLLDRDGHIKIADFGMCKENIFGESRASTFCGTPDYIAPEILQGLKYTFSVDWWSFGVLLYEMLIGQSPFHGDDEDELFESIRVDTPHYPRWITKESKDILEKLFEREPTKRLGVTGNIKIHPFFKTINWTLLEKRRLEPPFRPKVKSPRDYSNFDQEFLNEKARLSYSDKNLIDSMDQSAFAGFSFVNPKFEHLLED
Chain of UniProt P25098 (whole entry, looked up): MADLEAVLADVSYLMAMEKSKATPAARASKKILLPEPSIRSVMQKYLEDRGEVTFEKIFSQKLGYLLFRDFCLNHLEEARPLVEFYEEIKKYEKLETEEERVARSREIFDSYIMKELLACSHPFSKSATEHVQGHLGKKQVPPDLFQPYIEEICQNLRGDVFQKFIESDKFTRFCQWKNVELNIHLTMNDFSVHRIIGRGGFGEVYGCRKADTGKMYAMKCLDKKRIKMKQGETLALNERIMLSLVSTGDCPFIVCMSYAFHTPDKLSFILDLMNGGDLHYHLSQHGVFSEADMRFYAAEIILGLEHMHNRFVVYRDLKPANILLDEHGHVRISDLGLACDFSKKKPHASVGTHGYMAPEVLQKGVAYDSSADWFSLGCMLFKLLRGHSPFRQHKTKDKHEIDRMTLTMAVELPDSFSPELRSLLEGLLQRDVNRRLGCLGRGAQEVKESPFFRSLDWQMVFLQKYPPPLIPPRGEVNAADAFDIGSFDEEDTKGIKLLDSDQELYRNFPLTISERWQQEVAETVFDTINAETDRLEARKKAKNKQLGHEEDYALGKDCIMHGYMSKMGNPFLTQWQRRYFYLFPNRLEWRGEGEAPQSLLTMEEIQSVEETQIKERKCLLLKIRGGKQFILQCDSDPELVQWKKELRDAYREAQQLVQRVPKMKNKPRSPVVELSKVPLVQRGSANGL
Chain of UniProt P16591 (whole entry, looked up): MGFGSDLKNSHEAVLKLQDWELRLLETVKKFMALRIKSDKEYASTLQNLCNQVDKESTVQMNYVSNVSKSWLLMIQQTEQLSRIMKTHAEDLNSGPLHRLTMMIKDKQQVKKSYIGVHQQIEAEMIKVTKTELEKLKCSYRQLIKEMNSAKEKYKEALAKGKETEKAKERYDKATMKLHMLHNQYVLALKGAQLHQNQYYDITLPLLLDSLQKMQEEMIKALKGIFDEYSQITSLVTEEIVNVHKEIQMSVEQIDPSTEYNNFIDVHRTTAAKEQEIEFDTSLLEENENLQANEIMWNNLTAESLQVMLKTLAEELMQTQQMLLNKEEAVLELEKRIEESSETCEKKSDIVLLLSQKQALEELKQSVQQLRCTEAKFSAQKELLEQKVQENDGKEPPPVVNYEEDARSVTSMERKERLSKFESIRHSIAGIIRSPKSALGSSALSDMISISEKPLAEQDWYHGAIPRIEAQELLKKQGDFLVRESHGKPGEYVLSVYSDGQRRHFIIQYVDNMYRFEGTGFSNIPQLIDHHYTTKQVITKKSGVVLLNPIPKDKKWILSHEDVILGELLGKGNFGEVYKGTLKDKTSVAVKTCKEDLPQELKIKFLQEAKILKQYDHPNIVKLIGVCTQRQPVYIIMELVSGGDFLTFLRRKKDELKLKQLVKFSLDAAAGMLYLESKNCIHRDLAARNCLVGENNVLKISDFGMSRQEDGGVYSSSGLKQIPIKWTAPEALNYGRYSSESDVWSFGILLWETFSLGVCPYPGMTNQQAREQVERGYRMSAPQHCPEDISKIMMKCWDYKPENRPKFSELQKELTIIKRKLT
Chain of UniProt P28482 (whole entry, looked up): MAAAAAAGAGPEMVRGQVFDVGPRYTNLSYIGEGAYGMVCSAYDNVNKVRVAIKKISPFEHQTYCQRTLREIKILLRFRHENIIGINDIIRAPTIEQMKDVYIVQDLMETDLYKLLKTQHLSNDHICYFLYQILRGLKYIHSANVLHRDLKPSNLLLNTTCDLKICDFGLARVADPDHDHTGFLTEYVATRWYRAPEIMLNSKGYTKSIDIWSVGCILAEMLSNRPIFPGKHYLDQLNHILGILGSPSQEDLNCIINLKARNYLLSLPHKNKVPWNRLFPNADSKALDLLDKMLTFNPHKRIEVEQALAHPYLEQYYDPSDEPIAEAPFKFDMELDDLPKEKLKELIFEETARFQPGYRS
Chain of UniProt P29597 (whole entry, looked up): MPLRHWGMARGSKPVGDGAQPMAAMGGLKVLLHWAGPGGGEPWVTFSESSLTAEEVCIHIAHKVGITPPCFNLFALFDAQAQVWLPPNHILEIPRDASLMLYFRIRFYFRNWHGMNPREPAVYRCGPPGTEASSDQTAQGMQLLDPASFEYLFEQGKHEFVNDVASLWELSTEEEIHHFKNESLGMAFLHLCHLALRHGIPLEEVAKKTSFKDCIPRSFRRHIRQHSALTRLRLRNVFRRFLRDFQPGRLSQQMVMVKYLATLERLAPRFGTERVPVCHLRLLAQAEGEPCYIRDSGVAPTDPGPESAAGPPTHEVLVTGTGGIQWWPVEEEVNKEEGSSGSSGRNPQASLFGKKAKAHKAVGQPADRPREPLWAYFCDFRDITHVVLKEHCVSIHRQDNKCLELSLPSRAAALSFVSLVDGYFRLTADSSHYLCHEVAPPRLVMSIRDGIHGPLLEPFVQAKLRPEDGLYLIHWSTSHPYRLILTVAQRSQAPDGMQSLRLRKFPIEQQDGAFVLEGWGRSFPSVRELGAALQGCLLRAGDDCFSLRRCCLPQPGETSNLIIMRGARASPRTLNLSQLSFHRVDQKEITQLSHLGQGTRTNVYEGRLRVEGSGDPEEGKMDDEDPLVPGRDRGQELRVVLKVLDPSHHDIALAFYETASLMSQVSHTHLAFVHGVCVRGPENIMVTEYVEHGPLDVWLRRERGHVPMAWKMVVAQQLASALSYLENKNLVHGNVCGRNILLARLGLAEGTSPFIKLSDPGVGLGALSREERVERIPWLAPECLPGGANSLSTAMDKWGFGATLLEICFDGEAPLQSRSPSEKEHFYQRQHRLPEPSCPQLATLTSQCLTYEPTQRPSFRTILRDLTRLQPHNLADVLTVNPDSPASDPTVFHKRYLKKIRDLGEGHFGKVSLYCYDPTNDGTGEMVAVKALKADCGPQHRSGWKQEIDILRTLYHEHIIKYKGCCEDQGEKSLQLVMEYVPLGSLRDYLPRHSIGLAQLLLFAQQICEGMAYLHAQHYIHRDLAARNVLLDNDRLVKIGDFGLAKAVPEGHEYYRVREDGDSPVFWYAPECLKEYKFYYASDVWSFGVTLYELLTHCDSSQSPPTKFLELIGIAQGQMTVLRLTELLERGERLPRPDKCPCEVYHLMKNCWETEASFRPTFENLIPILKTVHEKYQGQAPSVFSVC
Chain of UniProt P46734 (whole entry, looked up): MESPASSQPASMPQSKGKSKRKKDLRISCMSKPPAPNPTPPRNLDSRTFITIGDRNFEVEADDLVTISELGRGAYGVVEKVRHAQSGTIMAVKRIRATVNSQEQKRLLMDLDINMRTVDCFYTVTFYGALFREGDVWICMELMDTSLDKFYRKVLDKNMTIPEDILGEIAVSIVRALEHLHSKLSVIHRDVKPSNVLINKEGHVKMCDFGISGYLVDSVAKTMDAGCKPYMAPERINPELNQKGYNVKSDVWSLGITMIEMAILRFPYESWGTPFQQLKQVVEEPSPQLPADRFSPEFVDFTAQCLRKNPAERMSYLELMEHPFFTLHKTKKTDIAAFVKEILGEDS

Block 1
Structure (SMILES): CCOC(=O)c1cc2cc(-c3cc(C(=O)NCc4ccc(C(=O)O)cc4)nn3C)ccc2[nH]1
Tested at: 0.1 µM
| target | assay | remaining binding |
| --- | --- | --- |
| Tyrosine-protein kinase ABL1, non-phosphorylated (ABL1, Homo sapiens, UniProt P00519, F317L) | cell-free assay, competition with immobilised ligand | 61% |
| Cyclin-G-associated kinase (GAK, Homo sapiens, UniProt O14976) | cell-free assay, competition with immobilised ligand | 85% |
| Serine/threonine-protein kinase SIK1 (SIK1, Homo sapiens, UniProt P57059) | competition binding | 97% |
| Tyrosine-protein kinase JAK1, JH2 (JAK1, Homo sapiens, UniProt P23458) | cell-free assay, competition with immobilised ligand | 94% |
| Receptor-type tyrosine-protein kinase FLT3 (FLT3, Homo sapiens, UniProt P36888, F691L/ITD) | cell-free assay, competition with immobilised ligand | 72% |
| Protein kinase C theta type (PRKCQ, Homo sapiens, UniProt Q04759) | cell-free assay, competition with immobilised ligand | 97% |
| Mitogen-activated protein kinase kinase kinase kinase 2 (MAP4K2, Homo sapiens, UniProt Q12851) | cell-free assay, competition with immobilised ligand | 84% |
| Serine/threonine-protein kinase 16 (STK16, Homo sapiens, UniProt O75716) | cell-free assay, competition with immobilised ligand | 78% |
| Mitogen-activated protein kinase 1 (MAPK1, Homo sapiens, UniProt P28482) | cell-free assay, competition with immobilised ligand | 99% |
| Tyrosine-protein kinase Fer (FER, Homo sapiens, UniProt P16591) | cell-free assay, competition with immobilised ligand | 100% |
| Tyrosine-protein kinase Srms (SRMS, Homo sapiens, UniProt Q9H3Y6) | cell-free assay, competition with immobilised ligand | 90% |
| Cyclin-dependent kinase-like 1 (CDKL1, Homo sapiens, UniProt Q00532) | cell-free assay, competition with immobilised ligand | 77% |
| Phosphatidylinositol 4,5-bisphosphate 3-kinase catalytic subunit delta isoform (PIK3CD, Homo sapiens, UniProt O00329) | cell-free assay, competition with immobilised ligand | 65% |
| Serine/threonine-protein kinase 24 (STK24, Homo sapiens, UniProt Q9Y6E0) | cell-free assay, competition with immobilised ligand | 92% |
| Calcium/calmodulin-dependent protein kinase type 1G (CAMK1G, Homo sapiens, UniProt Q96NX5) | cell-free assay, competition with immobilised ligand | 100% |
| Aurora kinase C (AURKC, Homo sapiens, UniProt Q9UQB9) | cell-free assay, competition with immobilised ligand | 100% |
| Dual specificity mitogen-activated protein kinase kinase 3 (MAP2K3, Homo sapiens, UniProt P46734) | cell-free assay, competition with immobilised ligand | 100% |
| Receptor tyrosine-protein kinase erbB-2 (ERBB2, Homo sapiens, UniProt P04626) | cell-free assay, competition with immobilised ligand | 99% |
| Myotonin-protein kinase (DMPK, Homo sapiens, UniProt Q09013) | cell-free assay, competition with immobilised ligand | 87% |
| Non-receptor tyrosine-protein kinase TYK2, JH2 (TYK2, Homo sapiens, UniProt P29597) | cell-free assay, competition with immobilised ligand | 91% |
| Mast/stem cell growth factor receptor Kit (KIT, Homo sapiens, UniProt P10721, L576P) | cell-free assay, competition with immobilised ligand | 100% |
| G protein-coupled receptor kinase 3 (GRK3, Homo sapiens, UniProt P35626) | cell-free assay, competition with immobilised ligand | 96% |
| Calcium/calmodulin-dependent protein kinase kinase 1 (CAMKK1, Homo sapiens, UniProt Q8N5S9) | cell-free assay, competition with immobilised ligand | 100% |
| Beta-adrenergic receptor kinase 1 (GRK2, Homo sapiens, UniProt P25098) | cell-free assay, competition with immobilised ligand | 100% |
| Protein kinase C delta type (PRKCD, Homo sapiens, UniProt Q05655) | cell-free assay, competition with immobilised ligand | 90% |

Block 2
Target: Diamine acetyltransferase 1 (Homo sapiens, UniProt P21673)
Mode: inhibitor
Tested at: 10 µM
Relative to: control
Construct (P21673 1-171): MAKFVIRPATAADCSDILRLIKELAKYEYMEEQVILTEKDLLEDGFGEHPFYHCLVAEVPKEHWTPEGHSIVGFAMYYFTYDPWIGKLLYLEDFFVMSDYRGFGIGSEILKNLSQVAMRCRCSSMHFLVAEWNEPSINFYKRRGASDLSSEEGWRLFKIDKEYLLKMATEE
| Compound | remaining activity [%] |
| --- | --- |
| O=CCc1ccccc1 | 103 |
| COc1cc2oc(=O)ccc2cc1O | 104 |
| C[C@@H]1CC[C@@H]2C(C(=O)O)=CO[C@@H](O[C@@H]3O[C@H](CO)[C@@H](O)[C@H](O)[C@H]3O)[C@H]12 | 103 |
| CC1=CCC(C(C)C)=CC1 | 103 |
| CC12CCC(C1)C(C)(C)C2O (centres unmarked) | 108 |
| C[C@@H]1O[C@@H](O[C@H]2[C@H](O[C@H]3CC[C@@]4(C)[C@@H](CC[C@]5(C)[C@@H]4CC=C4[C@@H]6CC(C)(C)CC[C@]6(C(=O)O[C@@H]6O[C@H](CO[C@@H]7O[C@H](CO)[C@@H](O)[C@H](O)[C@H]7O)[C@@H](O)[C@H](O)[C@H]6O)CC[C@]45C)[C@]3(C)CO)OC[C@H](O)[C@@H]2O)[C@H](O)[C@H](O[C@@H]2O[C@H](CO)[C@@H](O[C@@H]3O[C@H](CO)[C@@H](O)[C@H](O)[C@H]3O)[C@H](O)[C@H]2O)[C@H]1O | 92 |
| O=C(CCCCCCCCc1ccc(O)c(O)c1)c1c(O)cccc1O | 121 |

Block 3
Structure (SMILES): CC(C)C[C@@H]1NC(=O)[C@@H](N(C)C(=O)[C@H](CC2CCC2)NC(=O)[C@@H]2C[C@@H](F)CN2C(=O)C2(C(F)(F)F)CC(F)(F)C2)CCCCNC(=O)C2(CC2)NC(=O)[C@H](Cc2cc(Cl)ccc2Cl)N(C)C1=O
Method: flow cytometry
| cell line | conditions | cleaved PARP positive cells |
| --- | --- | --- |
| NCI-H82 | 200 nM, 72 h | 3.58% and 4.31% and 5.04% |
| NCI-H446 | 6 nM, 3 days, without Mps1 inhibitor | 17% and 20.1% and 19.3% |
| NCI-H82 | 2000 nM, 72 h | 4.37% and 6.27% and 7.04% |
| human CD34+ HSPC | 300 nM, 24 h | 0.83% and 0.53% |
| human CD34+ HSPC | 10 nM, 24 h | 0.96% and 0.59% |
| A549 | 200 nM, 72 h | 1.74% and 0.18% and 0.48% |

Block 4
Method: logD(dd/w) and ALogP
Setting: JT method
| Compound | lipophilic permeability efficiency |
| --- | --- |
| CC(C)C[C@@H]1NC(=O)[C@H](C)NC(=O)[C@H](CC(C)C)NC(=O)[C@@H](CC(C)C)NC(=O)[C@H](CC(C)C)NC(=O)[C@H](C(C)C)NC(=O)[C@H](CCC(=O)N2CCCC2)NC1=O | 1.84 |
| CC(C)C[C@@H]1NC(=O)[C@H](CC(C)C)NC(=O)[C@@H](CC(C)C)NC(=O)[C@H](C(C)C)NC(=O)[C@H](C(C)C)NC(=O)[C@H](Cc2cscn2)NC(=O)[C@H](C)NC1=O | 2.18 |
| CC(C)C[C@@H]1NC(=O)[C@H](CC(C)C)NC(=O)[C@@H](C(C)C)NC(=O)[C@H](CC(C)C)NC(=O)[C@@H](Cc2cscn2)NC(=O)[C@H](Cc2cscn2)NC(=O)[C@H](CCC(=O)N2CCCC2)NC1=O | 2.13 |
| CC(C)C[C@@H]1NC(=O)[C@H](CC(C)C)NC(=O)[C@@H](CC(C)C)NC(=O)[C@H](C)NC(=O)[C@H](C(C)C)NC(=O)[C@H](C)NC(=O)[C@H](C)NC1=O | 2.37 |
| CC(C)C[C@@H]1NC(=O)[C@H](CC(C)C)NC(=O)[C@H](CC(C)C)NC(=O)[C@H](CC(C)C)NC(=O)[C@@H](Cc2cscn2)NC(=O)[C@H](C)NC(=O)[C@H](CCC(=O)N2CCCC2)NC1=O | 1.82 |
| CC(C)C[C@@H]1NC(=O)[C@H](CC(C)C)NC(=O)[C@H](CC(C)C)NC(=O)[C@H](C(C)C)NC(=O)[C@@H](Cc2cscn2)NC(=O)[C@@H](CC(C)C)NC(=O)[C@H](C)NC1=O | 2.65 |
| CC(C)C[C@@H]1NC(=O)[C@H](C(C)C)NC(=O)[C@H](C)NC(=O)[C@H](CC(C)C)NC(=O)[C@H](C(C)C)NC(=O)[C@H](CC(C)C)NC(=O)[C@@H](CC(C)C)NC1=O | 2.74 |
| CC(C)C[C@@H]1NC(=O)[C@H](Cc2cscn2)NC(=O)[C@@H](CC(C)C)NC(=O)[C@H](C(C)C)NC(=O)[C@H](CC(C)C)NC(=O)[C@@H](CC(C)C)NC(=O)[C@H](CC(C)C)NC1=O | 2.39 |

Block 5
Organism: Sarcocystis neurona
Observed: parasite growth
Tested at: 10 µM
Time: 96 h
Relative to: untreated
| Structure (SMILES) | log2 fold change |
| --- | --- |
| CN(C)CCN(Cc1ccccc1)c1ccccn1 | 0.3 |
| NC1CCN(c2nc3c(cc2F)c(=O)c(C(=O)O)cn3-c2ccc(F)cc2F)C1 (centres unmarked) | -0.17 |
| CN(CCOc1ccc(CC2SC(=O)NC2=O)cc1)c1ccccn1 (centres unmarked) | -0.17 |
| CCC1(c2ccccc2)C(=O)NCNC1=O | 0.34 |
| CCN1CCC[C@H]1CNC(=O)c1c(O)c(Cl)cc(Cl)c1OC | -0.14 |
| COc1ccc(-c2cc(=O)c3c(OC)c(OC)c(OC)c(OC)c3o2)cc1OC | -0.27 |
| CCOC(=O)CCC(=O)O[C@H]1[C@H](O[C@@H]2[C@@H](C)[C@H](O[C@H]3C[C@@](C)(OC)[C@@H](O)[C@H](C)O3)[C@@H](C)C(=O)O[C@H](CC)[C@@](C)(O)[C@H](O)[C@@H](C)C(=O)[C@H](C)C[C@@]2(C)O)O[C@H](C)C[C@@H]1N(C)C | -0.31 |

A few entries again (block 5):
| Structure (SMILES) | log2 fold change |
| --- | --- |
| NC1CCN(c2nc3c(cc2F)c(=O)c(C(=O)O)cn3-c2ccc(F)cc2F)C1 (centres unmarked) | -0.17 |
| CCN1CCC[C@H]1CNC(=O)c1c(O)c(Cl)cc(Cl)c1OC | -0.14 |
| COc1ccc(-c2cc(=O)c3c(OC)c(OC)c(OC)c(OC)c3o2)cc1OC | -0.27 |
| CCOC(=O)CCC(=O)O[C@H]1[C@H](O[C@@H]2[C@@H](C)[C@H](O[C@H]3C[C@@](C)(OC)[C@@H](O)[C@H](C)O3)[C@@H](C)C(=O)O[C@H](CC)[C@@](C)(O)[C@H](O)[C@@H](C)C(=O)[C@H](C)C[C@@]2(C)O)O[C@H](C)C[C@@H]1N(C)C | -0.31 |
| CCC1(c2ccccc2)C(=O)NCNC1=O | 0.34 |
| CN(C)CCN(Cc1ccccc1)c1ccccn1 | 0.3 |
| CN(CCOc1ccc(CC2SC(=O)NC2=O)cc1)c1ccccn1 (centres unmarked) | -0.17 |
